Published values gathered from unrelated publications.
A part holds a random share of what one study measured.

Series 1
Target: Sal-like protein 4, full length isoform A (SALL4, Homo sapiens, UniProt Q9UJQ4, residues 1-1053)
Chain of UniProt Q9UJQ4 (whole entry, looked up): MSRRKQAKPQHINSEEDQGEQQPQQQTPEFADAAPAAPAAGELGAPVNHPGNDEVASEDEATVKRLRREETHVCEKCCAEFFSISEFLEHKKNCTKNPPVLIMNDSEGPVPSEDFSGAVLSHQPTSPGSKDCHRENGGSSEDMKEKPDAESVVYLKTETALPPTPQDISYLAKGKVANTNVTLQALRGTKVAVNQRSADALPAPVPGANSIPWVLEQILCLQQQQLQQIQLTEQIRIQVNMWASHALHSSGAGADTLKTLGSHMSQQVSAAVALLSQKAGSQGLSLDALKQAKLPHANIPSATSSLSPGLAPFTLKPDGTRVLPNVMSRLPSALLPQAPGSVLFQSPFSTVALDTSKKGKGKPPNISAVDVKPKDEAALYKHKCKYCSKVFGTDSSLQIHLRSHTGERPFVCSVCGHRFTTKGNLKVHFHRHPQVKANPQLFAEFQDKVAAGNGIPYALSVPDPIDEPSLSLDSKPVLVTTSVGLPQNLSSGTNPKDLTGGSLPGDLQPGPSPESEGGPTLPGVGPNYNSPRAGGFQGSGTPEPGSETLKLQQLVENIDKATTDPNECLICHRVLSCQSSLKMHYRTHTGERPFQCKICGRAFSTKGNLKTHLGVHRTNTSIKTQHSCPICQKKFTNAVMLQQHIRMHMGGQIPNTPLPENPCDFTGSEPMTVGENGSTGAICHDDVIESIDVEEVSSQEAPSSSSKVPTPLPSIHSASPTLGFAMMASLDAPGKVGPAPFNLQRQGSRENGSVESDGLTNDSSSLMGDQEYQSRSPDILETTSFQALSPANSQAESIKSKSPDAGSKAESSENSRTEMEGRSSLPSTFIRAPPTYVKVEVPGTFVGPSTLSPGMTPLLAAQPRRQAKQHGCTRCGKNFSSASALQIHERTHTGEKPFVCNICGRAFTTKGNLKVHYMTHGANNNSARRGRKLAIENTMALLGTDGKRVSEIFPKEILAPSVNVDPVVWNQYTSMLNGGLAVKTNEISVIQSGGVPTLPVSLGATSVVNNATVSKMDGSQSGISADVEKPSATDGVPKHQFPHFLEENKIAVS
Technique: universal PBM
Molecule type: double-stranded DNA, one strand shown
Matrix: in vitro
Concentration: 600 nM
Setting: 8-mer, flanks averaged, mean of replicates
Reading: higher = stronger binding
Measurement: E-score
CTTTCCTC: -0.0157
GCCGGCAA: -0.133
GTTACACA: 0.107
AATCGCTC: -0.00324
ACTTAGCA: 0.0511
GATGTCGC: -0.0941

Series 2
Target: Ras GTPase-activating protein-binding protein 1, RRM domain (G3BP1, Homo sapiens, UniProt Q13283)
Chain of UniProt Q13283 (whole entry, looked up): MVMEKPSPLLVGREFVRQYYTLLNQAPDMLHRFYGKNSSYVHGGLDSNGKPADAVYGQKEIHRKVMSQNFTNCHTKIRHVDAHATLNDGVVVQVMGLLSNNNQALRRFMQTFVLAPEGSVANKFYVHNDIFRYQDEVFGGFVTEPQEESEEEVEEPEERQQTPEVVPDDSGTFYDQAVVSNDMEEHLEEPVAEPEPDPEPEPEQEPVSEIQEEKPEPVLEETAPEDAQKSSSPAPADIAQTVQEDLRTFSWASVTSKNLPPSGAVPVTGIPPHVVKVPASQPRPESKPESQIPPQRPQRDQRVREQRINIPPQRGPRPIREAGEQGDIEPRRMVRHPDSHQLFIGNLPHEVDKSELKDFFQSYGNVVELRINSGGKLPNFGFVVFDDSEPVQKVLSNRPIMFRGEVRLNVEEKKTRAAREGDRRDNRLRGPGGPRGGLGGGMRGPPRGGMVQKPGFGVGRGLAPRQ
Technique: RNA Bind-n-Seq
Molecule type: RNA
Matrix: in vitro
Concentration: 1 µM
Setting: whole 134-nt RNA, ends assumed
Added: 150 mM KCl
Relative to: input library
Reading: higher = stronger binding
Measurement: log2 enrichment
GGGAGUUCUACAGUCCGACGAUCCACAGACAACAUGCACCCACACAGACACAGAGGGAAGGGGUUGGGAUGGGGACAGGGUGCACAGCAGGGCGGGGUAGGACCCCAGCCCCUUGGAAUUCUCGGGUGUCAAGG: -0.279
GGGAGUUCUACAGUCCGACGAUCUCCUGUGCUACACAUCGUAUGUACCGAAUCGGGGAGGGGAAAAAAAGGGGAAAAAGGGGAAAGUAUUAUGUUACGCCGUUCGGAUCUGCAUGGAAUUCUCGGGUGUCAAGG: 0.808
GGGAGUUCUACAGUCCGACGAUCUGGCCCUGGUGGCAUGCGGGGAGGAAGAGGUGGCCUCAUGGAUCGUGGUGGUCCCGGUGGAAUGUUCAGAGGUGGCCGUUGUGGAGACAGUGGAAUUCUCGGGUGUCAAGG: 1.86
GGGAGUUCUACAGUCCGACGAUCUGGGAGGUGGAUUUUGUUUAUUUUUUUAGCUCAUUUCCAGGGGUGGGAAGUUUUUUUUAAUAUGUGUCAUGAAUAAAGUUGUUUUUGAAAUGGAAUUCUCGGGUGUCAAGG: 2.39
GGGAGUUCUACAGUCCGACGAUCGCAGGAAGUAAAAACAAAUGGAAAUGCUUAAAAUAGUGGCAGGGGUGGGGGUUGCUAAGGAAAGGGUGGGAUGGGAGUGGGUAAAGAGUUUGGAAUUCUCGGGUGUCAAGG: 1.37
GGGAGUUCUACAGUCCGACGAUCUGGCCCUGGUGGCAUGCGGGGAGGAAGAGGUGGCCUCAUGGAUCGUGGUGGUCCCGGUGGAAUGUUCAGAGGUGGCCGUGGUGGAGCCAGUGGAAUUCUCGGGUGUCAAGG: 1.49
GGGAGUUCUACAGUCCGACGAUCCCUCAAGUCCUGUGCUACACAUCGUAUGUACCGAAUCGGGCGGCGGGGCGGGGAAAGUAUUAUGUUACGCCGUUCGGAUCUGCACUUCCAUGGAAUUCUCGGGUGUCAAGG: 0.251
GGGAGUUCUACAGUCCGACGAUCUCAAGUCCUGUGCUACACAUCGUAUGUACCGAAUCGGUUUGGUUUUUUUGGAGGAAAGUAUUAUGUUACGCCGUUCGGAUCUGCACUUCCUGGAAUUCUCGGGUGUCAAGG: -0.154

Series 3
Target: Histone acetyltransferase KAT6A, both winged helices, GST fusion (KAT6A, Homo sapiens, UniProt Q92794, residues 1-181)
Technique: protein binding microarray
Molecule type: double-stranded DNA, one strand shown
Matrix: in vitro
Concentration: not given
Setting: 8-mer, flanks averaged, mean of 2 arrays, mostly near background
Relative to: not given
Reading: higher = stronger binding
Measurement: E-score
Residues (chain): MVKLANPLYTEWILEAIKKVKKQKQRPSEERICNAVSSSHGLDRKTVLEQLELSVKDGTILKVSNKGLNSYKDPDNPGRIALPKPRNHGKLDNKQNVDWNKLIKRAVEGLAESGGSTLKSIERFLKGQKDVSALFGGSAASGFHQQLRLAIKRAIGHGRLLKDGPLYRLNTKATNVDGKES
GGTTGGAC: -0.0545
GGAGTATA: 0.0524
TCGAGCCA: 0.044
CCTATCTA: -0.258
GCGGTAGA: 0.228
CTTTGTCA: -0.0722

Further values, each from its own experiment
PhoQ, residues 284 288 289 292 302 303 TGYLSA
fold induction (PhoP, residues 12 14 15 18 19 NFCKL (Escherichia coli, UniProt P23836); Sort-seq, item: YFP reporter; E. coli; PhoQ-PhoP variant library, added: 10 µM Mg2+; relative to: high Mg2+ state, higher = stronger signaling): 5.49

Repeated from above (series 1):
GCCGGCAA: -0.133
